# Measured values from different studies.
# Every numbered part comes from another study and shows a few of its results, in no order. Changes are numbered by the printed parent chain.

# Block 1
# Target: UDP-N-acetylglucosamine--peptide N-acetylglucosaminyltransferase 110 kDa subunit (OGT, Homo sapiens, UniProt O15294)
# Chain of UniProt O15294 (whole entry, looked up): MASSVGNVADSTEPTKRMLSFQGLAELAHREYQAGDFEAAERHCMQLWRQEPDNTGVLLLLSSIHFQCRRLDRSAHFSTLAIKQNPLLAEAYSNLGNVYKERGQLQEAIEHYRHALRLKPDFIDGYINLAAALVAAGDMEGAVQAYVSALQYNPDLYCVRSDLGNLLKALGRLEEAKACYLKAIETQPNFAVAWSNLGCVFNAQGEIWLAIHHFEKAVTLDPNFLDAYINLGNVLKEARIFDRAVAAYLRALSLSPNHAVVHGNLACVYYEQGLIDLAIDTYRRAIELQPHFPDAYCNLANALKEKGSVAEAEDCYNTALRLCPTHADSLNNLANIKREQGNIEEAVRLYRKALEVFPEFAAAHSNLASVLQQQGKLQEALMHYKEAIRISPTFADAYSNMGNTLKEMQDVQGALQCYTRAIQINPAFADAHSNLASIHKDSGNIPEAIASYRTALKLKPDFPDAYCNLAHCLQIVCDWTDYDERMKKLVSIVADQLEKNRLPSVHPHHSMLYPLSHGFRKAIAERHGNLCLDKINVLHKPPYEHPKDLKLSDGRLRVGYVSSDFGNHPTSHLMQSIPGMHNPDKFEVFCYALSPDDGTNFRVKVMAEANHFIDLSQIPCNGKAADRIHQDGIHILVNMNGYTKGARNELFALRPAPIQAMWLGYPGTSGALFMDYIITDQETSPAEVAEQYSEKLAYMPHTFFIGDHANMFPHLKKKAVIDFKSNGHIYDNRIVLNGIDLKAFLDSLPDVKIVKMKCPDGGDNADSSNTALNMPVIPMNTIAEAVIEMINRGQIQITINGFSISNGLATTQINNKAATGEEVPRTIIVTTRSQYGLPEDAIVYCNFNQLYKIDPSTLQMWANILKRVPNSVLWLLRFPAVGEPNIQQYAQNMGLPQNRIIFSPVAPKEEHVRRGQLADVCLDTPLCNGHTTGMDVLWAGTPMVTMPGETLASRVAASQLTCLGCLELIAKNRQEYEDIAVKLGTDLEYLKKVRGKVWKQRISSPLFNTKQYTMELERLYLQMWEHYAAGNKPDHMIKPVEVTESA
# Effect on: binding
# Method: phage display NGS
# Molecule type: peptide
# Relative to: input library
Sequence,minimum log2 enrichment ratio
QHQHHQIITHYVDVA,1.43
QHSQHVHFTHRGEGH,2.57
THMHFTDHVNHETHL,1.63
HTPRVDYRFHATHHH,2.67
TNSANKPVHHHVVDT,1.17
RMTPQFRPFYQIIMR,2.48
QWPVIGWHTHATYIH,1.44
HVRGHHHIFTQGAD,3.25

# Block 2
# Target: vanadate, free oxyanion
# Method: microfluidic competitive inhibition
# Medium: in vitro, cell-free expressed
# Concentration: not given
# Notes: derived from inhibition constants, unchanged parent 676 nM
# Direction: lower = stronger binding
# Starting sequence: PafA, mature enzyme, eGFP fusion (Elizabethkingia meningoseptica, UniProt Q9KJX5); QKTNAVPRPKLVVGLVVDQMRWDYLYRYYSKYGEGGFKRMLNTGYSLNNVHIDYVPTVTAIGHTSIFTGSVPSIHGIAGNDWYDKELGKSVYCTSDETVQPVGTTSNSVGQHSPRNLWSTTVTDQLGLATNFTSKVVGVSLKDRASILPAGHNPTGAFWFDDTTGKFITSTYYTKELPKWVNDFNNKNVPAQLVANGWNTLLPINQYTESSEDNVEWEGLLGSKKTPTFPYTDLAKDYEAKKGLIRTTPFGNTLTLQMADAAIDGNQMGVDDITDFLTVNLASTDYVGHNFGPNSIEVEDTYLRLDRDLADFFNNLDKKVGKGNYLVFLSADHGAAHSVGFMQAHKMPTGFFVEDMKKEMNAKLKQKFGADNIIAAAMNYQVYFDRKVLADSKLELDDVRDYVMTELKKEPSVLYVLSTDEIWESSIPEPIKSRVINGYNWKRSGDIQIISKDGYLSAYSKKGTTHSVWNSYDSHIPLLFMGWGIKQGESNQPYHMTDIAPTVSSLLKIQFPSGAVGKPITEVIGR
Variant,oxyanion analog dissociation constant
K358V,868 nM
V388G,694 nM
Q111G,629 nM
G36A,1.13 µM
Y26G,660 nM
V435G,1.04 µM
V468A,612 nM
A515G,774 nM

# Block 3
# Target: CCNB1, cyclin fold, Cln2 fusion (human)
# Method: yeast growth competition, sequencing
# Medium: yeast
# Notes: weak parent motif
# Relative to: not given
# Direction: higher = stronger binding
# Starting sequence: viral docking peptide; PGASRRLFGSSAD
Variant,normalised enrichment score
PGASRRAFGSSAD [L7A],0.251
PGASRRLFGASAD [S10A],-0.0711
PGASRRLLGSSAD [F8L],0.491
AGASRRLFGSSAD [P1A],0.523
PGASRRLFGSSAA [D13A],1.06
PGASRRLFASSAD [G9A],1.11
PGASRALFGSSAD [R6A],-0.162
PGASKRLFGSSAD [R5K],-0.126

# Other studies, line by line
SMILES,target,effect on,method,concentration,quantity,result
CNC(=O)c1cc(C(=O)N[C@H]2[C@@H]3COC[C@@H]32)cc2c1O[C@H](CF)[C@H]2c1ccccc1,"D(1B) dopamine receptor (DRD5, Homo sapiens, UniProt P21918)",binding,radioligand binding,10 µM,inhibition,28.3%
